Published values of several laboratories.
Protocols differ between the studies behind these lines. ± gives the spread as reported.

N[C@]1(C(=O)O)[C@H]2[C@@H](C[C@@H]1F)[C@@H]2C(=O)O — Tmax (human, both sexes, fed, plasma; oral, 20 mg, day 14, multiple ascending dose): 3 h
CNCc1ccc(-c2[nH]c3cc(F)cc4c3c2CCNC4=O)cc1 — Tmax (human, plasma; oral, 300 mg, fasted, median): 4.09 h
CCCC[C@H](NC(C)=O)C(=O)N[C@H]1CCC(=O)NC[C@@H](C(=O)N[C@@H](Cc2c[nH]c3ccccc23)C(N)=O)NC(=O)[C@H](CCCNC(=N)N)NC(=O)[C@@H](Cc2ccccc2)NC(=O)[C@H](Cc2c[nH]cn2)NC1=O — Tmax (healthy human, both sexes, plasma; subcutaneous, 3.0 mg once daily, day 1, median): 0.6 h
CNc1nc(Nc2ccc(-n3cnc(C)n3)c(OC)c2)nc2c1CC[C@H]2c1ccc(F)cc1 — Tmax (human; oral, 100 mg once daily, day 28, multiple ascending dose, median): 5 h
C=CC(=O)N(C)CCOc1c(N)ncnc1-c1cc(F)cc(NC(=O)c2ccc(C3CC3)cc2F)c1C — Tmax (humans, whole blood; oral, multiple ascending dose): < 1.5 h
O=C([O-])CCCCCCCNC(=O)c1ccccc1O.[Na+] — Tmax (human, moderate hepatic impairment, plasma; oral, once daily, day 10, after dose 10, median): 0.48 h
CC[C@@]1(O)C(=O)OCc2c1cc1n(c2=O)Cc2cc3c(CN(C)C)c(O)ccc3nc2-1 — Tmax (human patients; oral, 4 mg, day 15, median, together with: pazopanib 800 mg): 1.25 h
Cc1ccc(NC(=O)c2ccc(CN3CCN(C)CC3)cc2)cc1Nc1nccc(-c2cncc(-c3oncc3C)c2)n1 — Tmax (older healthy human adults, plasma; oral, 125 mg single dose, fed, mean): 3.34 h
CCn1c(C(=O)c2cc(C)cc(C#N)c2)c(C(C)C)c(=O)[nH]c1=O — Tmax (healthy humans, plasma; oral, 600 mg once daily, 7 days, median): 2 h
COc1ccnc(C[S+]([O-])c2nc3ccc(OC(F)F)cc3[nH]2)c1OC (stereo not drawn) — Tmax (HPLC; human CYP2C19 intermediate metabolizers, plasma; oral, 40 mg/day, day 1, esomeprazole): 4 ± 2.83 h
CC(C)n1cc(C#N)c2cc(-n3cc(C(=O)O)cn3)ccc21 — Tmax (healthy male humans; oral, single and multiple doses): ~3 h
Cc1[nH]c(/C=C2\C(=O)Nc3ccccc32)c(C)c1CCC(=O)O — Tmax (human patients; oral, 500 mg/m^2 twice daily, after meal, dose 55): 3.33 ± 2.31 h
CCOc1cc([C@@H](CS(C)(=O)=O)N2C(=O)c3cccc(NC(C)=O)c3C2=O)ccc1O[C@@H]1O[C@H](C(=O)O)[C@@H](O)[C@H](O)[C@H]1O — Tmax (healthy human controls, plasma; oral, 30 mg apremilast, matched to mild impairment): 6 h
COc1cc(Nc2ncc3c(n2)-c2ccc(Cl)cc2C(c2c(F)cccc2OC)=NC3)ccc1C(=O)O — Tmax (human, phase I; oral, 30 mg single dose): 4.9 ± 3 h
C[C@H]1C[C@@H]2[C@H]([C@@H](O)C[C@@]3(C)[C@H]2CC[C@]3(O)C(=O)CO)[C@@]2(C)C=CC(=O)C=C12 — Tmax (refers to: total compound; human, plasma; oral, once daily, 32 mg, day 1, median): 2 h
CC(C)NC[C@@H](C(=O)N1CCN(c2ncnc3c2[C@H](C)C[C@H]3O)CC1)c1ccc(Cl)cc1 — Tmax (human, Moderate hepatic function (Child-Pugh), plasma; oral, 100 mg single dose, median): 0.5 h
O=c1[nH]c(=O)c(Cc2cccc(C(F)(F)F)c2)c([C@H]2CC[C@H](c3ccccc3)CC2)[nH]1 — Tmax (human, fasted, plasma; oral, 300 mg single dose, median): 3.01 h
CCCOc1ccc([C@H]2CNC(=O)N2c2ccc3[nH]cnc3c2)cc1 — Tmax (human, elderly, fasted, plasma; oral, 800 mg twice daily, tablet, day 11, median): 1 h
O=C(c1ccc(OCCN2CCCCC2)cc1)c1c(-c2ccc(O)cc2)sc2cc(O)ccc12 — Tmax (healthy humans, plasma; oral, 60 mg, together with: chronic green tea): 1 h
Cn1cncc1[C@@](N)(c1ccc(Cl)cc1)c1ccc2c(c1)c(-c1cccc(Cl)c1)cc(=O)n2C — Tmax (human, plasma; oral, 1400 mg twice daily, day 5): 3 h
CCOc1c([C@H](C)n2nc(C)c3c(N)ncnc32)cc(Cl)c(F)c1[C@@H]1CNC(=O)C1 — Tmax (human; oral, 20 mg, alone or with rifampin): ≤ 1 h
CCOc1ccc(Cc2cc([C@@H]3S[C@H](CO)[C@@H](O)[C@H](O)[C@H]3O)c(OC)cc2C)cc1 — Tmax (human, plasma; oral, 10 mg/day, day 1, multiple dose before breakfast): 0.5 h
COC(=O)c1ccc2c(c1)NC(=O)/C2=C(\Nc1ccc(N(C)C(=O)CN2CCN(C)CC2)cc1)c1ccccc1 — Tmax (human, hepatic impairment Child-Pugh A, plasma; oral, 100 mg single dose, median): 4 h
CC(O)c1cc(C(=O)N[C@@H](C)Cn2ccc(-c3ccc(C#N)c(Cl)c3)n2)[nH]n1 (stereo partly drawn) — Tmax (human, male, plasma; oral, 600 mg, day 1, with food, single dose): ~6 h
COCCCCn1c(C(=O)N(CC(C)C)[C@@H]2CNC[C@H](C(=O)N3CCOCC3)C2)nc2ccccc21 — Tmax (non-elderly human, plasma; oral, 80 mg once daily, day 1): 2 h
CS(=O)(=O)Nc1ccc(C(=O)O[C@@H](Cc2c(Cl)c[n+]([O-])cc2Cl)c2ccc(OC(F)F)c(OCC3CC3)c2)cc1OCC1CC1 — Tmax (human, plasma; inhaled, 14 days, repeat dose twice daily, steady state): 1.5 to 3 h
COc1cnc(C(=O)Nc2ccc(F)c([C@]34CN(c5ncc(F)cn5)C[C@H]3CSC(N)=N4)c2)cn1 — Tmax (healthy human subjects, CSF; single dose): ~6 h
CO[C@H]1C[C@@H]2CC[C@@H](C)[C@@](O)(O2)C(=O)C(=O)N2CCCC[C@H]2C(=O)O[C@H]([C@H](C)C[C@@H]2CC[C@@H](O)[C@H](OC)C2)CC(=O)[C@H](C)/C=C(\C)[C@@H](O)[C@@H](OC)C(=O)[C@H](C)C[C@H](C)/C=C/C=C/C=C/1C — Tmax (healthy human subjects, whole blood; oral, 2 mg single dose, median, together with: isavuconazole 200 mg once daily after loading): 2 h
CC(C)(C)c1cc(C(C)(C)C)c(NC(=O)c2c[nH]c3ccccc3c2=O)cc1O — Tmax (human cystic fibrosis patients, capillary plasma; oral, 150 mg twice daily, steady state): 5 h
O=C(Cc1cccc(OC(F)(F)F)c1)Nc1ccc(CCCCc2nnc(NC(=O)Cc3ccccn3)s2)nn1 — Tmax (human; oral, 600 mg twice daily, fed, steady state, cycle 1 day 15): 4 h
CNC(=O)c1ccc(-c2cnc3ncc(Cc4ccc5ncccc5c4)n3n2)cc1F — Tmax (human; oral, capsules): 1 to 4 h
C#C[C@]1(CO)O[C@@H](n2cnc3c(N)nc(F)nc32)C[C@@H]1O — Tmax (human, plasma; oral, 30 mg once weekly, week 1): 1 h
COC(=O)c1ccc2c(c1)NC(=O)/C2=C(\Nc1ccc(N(C)C(=O)CN2CCN(C)CC2)cc1)c1ccccc1 — Tmax (human, moderate liver impairment, plasma; oral, 100 mg twice daily, steady state): 3 h
COc1ccnc(C[S+]([O-])c2nc3ccc(OC(F)F)cc3[nH]2)c1OC (stereo not drawn) — Tmax (human, obese children with GERD, plasma; oral, 1.2 mg/kg lean body weight, age 6-11 y, single dose; median): 2.3 h
Cc1ccc(NC(=O)c2ccc(CN3CCNCC3)cc2)cc1Nc1nccc(-c2cccnc2)n1 — Tmax (human patients, plasma; oral, 400 mg/day of imatinib, day 10 of cycle 1): 2.2 h
COc1ccc2nc([S@@+]([O-])Cc3ncc(C)c(OC)c3C)[nH]c2c1 — Tmax (HPLC; human CYP2C19 rapid metabolizers, plasma; oral, 40 mg/day, day 5, pantoprazole): 1.13 ± 0.85 h
CC(=O)c1c(C)c2cnc(Nc3ccc(N4CCNCC4)cn3)nc2n(C2CCCC2)c1=O — Tmax (human; oral, 75 mg/m^2 repeated doses, day 21): 4.9 ± 2 h
CCCS(=O)(=O)N[C@H]1C[C@@H](N(C)c2ncnc3[nH]ccc23)C1 — Tmax (human, hepatic function groups; oral, 200 mg, range of group medians, single dose): 1 to 2 h
Cc1ccsc1C(=O)Nc1cc(CN2CCN(C(=O)CO)CC2)ccc1/C=C/c1n[nH]c2ccccc12 — Tmax (human patients, plasma; oral, 50 mg/day, day 28): 1.5 ± 0.58 h

Excerpt of the above:
C[C@H]1C[C@@H]2[C@H]([C@@H](O)C[C@@]3(C)[C@H]2CC[C@]3(O)C(=O)CO)[C@@]2(C)C=CC(=O)C=C12 — Tmax (refers to: total compound; human, plasma; oral, once daily, 32 mg, day 1, median): 2 h
CC(C)NC[C@@H](C(=O)N1CCN(c2ncnc3c2[C@H](C)C[C@H]3O)CC1)c1ccc(Cl)cc1 — Tmax (human, Moderate hepatic function (Child-Pugh), plasma; oral, 100 mg single dose, median): 0.5 h
O=c1[nH]c(=O)c(Cc2cccc(C(F)(F)F)c2)c([C@H]2CC[C@H](c3ccccc3)CC2)[nH]1 — Tmax (human, fasted, plasma; oral, 300 mg single dose, median): 3.01 h
CCCOc1ccc([C@H]2CNC(=O)N2c2ccc3[nH]cnc3c2)cc1 — Tmax (human, elderly, fasted, plasma; oral, 800 mg twice daily, tablet, day 11, median): 1 h
